Experimental data from different studies.
Compare with care: the assays were run in different laboratories. ± marks the error that the study gave.

| SMILES | assay | test system | conditions | IC50 |
| --- | --- | --- | --- | --- |
| Brc1ccc(/C=N/N=C/c2ccc(Br)cc2)cc1 | nitric oxide scavenging | – | antioxidant | 953 µM |
| CC(=O)N[C@@H](CC(N)=O)C(=O)N[C@@H](CC(N)=O)C(=O)N[C@@H](CC(C)C)C(=O)N[C@H]1CSSC[C@@H](C(=O)N[C@H](C(N)=O)[C@@H](C)O)NC(=O)[C@H](CCCNC(=N)N)NC(=O)[C@H](Cc2c[nH]cn2)NC(=O)[C@H](C)NC(=O)CNC(=O)[C@H](Cc2c[nH]c3ccccc23)NC(=O)[C@H](CC(=O)O)NC(=O)[C@H](CCC(N)=O)NC(=O)[C@H](Cc2c[nH]c3ccccc23)NC(=O)[C@H](C(C)C)NC1=O | complement activation, inhibitor, ELISA, refers to: C5b-9 | normal human serum | – | 0.46 ± 0.09 µM |
| O=S1(=O)C=C(N2CCOCC2)c2ccccc21 | CoA-CPM signal reduction, CPM fluorescence thiol | cell-free biochemical | assay interference counter-screen, added: CoA replacing acetyl-CoA | > 125 µM |
| CCCCC1OC(=O)c2ccccc21 (stereo not shown) | platelet aggregation, inhibitor | platelets | added: arachidonic acid 1 mmol/L | 520 ± 60 µM |
| CC[C@H](C)[C@H](NC(=O)[C@H](CO)NC(=O)[C@H](CCCNC(=N)N)NC(C)=O)C(=O)N[C@H]1CSSC[C@@H](C(=O)N[C@H](C(N)=O)[C@@H](C)O)NC(=O)[C@H](CCCNC(=N)N)NC(=O)[C@H](Cc2c[nH]cn2)NC(=O)[C@H](C)NC(=O)CNC(=O)[C@H](Cc2c[nH]c3ccccc23)NC(=O)[C@H](CC(=O)O)NC(=O)[C@H](CCC(N)=O)NC(=O)[C@H](Cc2cccc3ccccc23)NC(=O)[C@H](C(C)C)NC1=O | complement activation, inhibitor, ELISA, refers to: C5b-9 | normal human serum | – | 0.82 ± 0.13 µM |
| O=S1(=O)C=C(N2CCCC2)c2ccccc21 | CoA-CPM signal reduction, CPM fluorescence thiol | cell-free biochemical | assay interference counter-screen, added: CoA replacing acetyl-CoA | > 125 µM |
| CC(=O)N[C@@H](CC(N)=O)C(=O)N[C@@H](CCCNC(=N)N)C(=O)N[C@@H](CC(C)C)C(=O)N[C@H]1CSSC[C@@H](C(=O)N[C@H](C(N)=O)[C@@H](C)O)NC(=O)[C@H](CCCNC(=N)N)NC(=O)[C@H](Cc2c[nH]cn2)NC(=O)[C@H](C)NC(=O)CNC(=O)[C@H](Cc2c[nH]c3ccccc23)NC(=O)[C@H](CC(=O)O)NC(=O)[C@H](CCC(N)=O)NC(=O)[C@H](Cc2c[nH]c3ccccc23)NC(=O)[C@H](C(C)C)NC1=O | complement activation, inhibitor, ELISA, refers to: C5b-9 | normal human serum | – | 0.45 ± 0.04 µM |
| Cc1c(CN2CCN(C(=O)[C@H](C)O)CC2)sc2c(N3CCOCC3)nc(-c3cnc(N)nc3)nc12 | refers to: pAkt | patients, metastatic renal cell carcinoma, plasma | – | 0.0191 µg/mL |
| FC(F)(F)c1ccccc1/C=N/N=C/c1ccccc1C(F)(F)F | ferric reducing antioxidant power, FRAP | – | – | 1070 µM |
| O=S1(=O)C=C(Sc2nc3ccccc3o2)c2ccccc21 | CoA-CPM signal reduction, CPM fluorescence thiol | cell-free biochemical | assay interference counter-screen, added: CoA replacing acetyl-CoA | > 125 µM |
| O=[N+]([O-])c1ccccc1/C=N/N=C/c1ccccc1[N+](=O)[O-] | ferric reducing antioxidant power, FRAP | – | – | > 3000 µM |
| CC(=O)N[C@@H](CC(N)=O)C(=O)N[C@@H](CC(N)=O)C(=O)N[C@@H](CC(C)C)C(=O)N[C@H]1CSSC[C@@H](C(=O)N[C@H](C(N)=O)[C@@H](C)O)NC(=O)[C@H](CCCNC(=N)N)NC(=O)[C@H](Cc2c[nH]cn2)NC(=O)[C@H](Cc2cccc3ccccc23)NC(=O)CNC(=O)[C@H](Cc2c[nH]c3ccccc23)NC(=O)[C@H](CC(=O)O)NC(=O)[C@H](CCC(N)=O)NC(=O)[C@H](Cc2cccc3ccccc23)NC(=O)[C@H](C(C)C)NC1=O | complement activation, inhibitor, ELISA, refers to: C3b | normal human serum | – | 3.71 ± 0.19 µM |
| O=C(O)c1ccccc1Nc1cccc(C(F)(F)F)c1 | input conductance | vascular smooth muscle cells, guinea pig, MA arteriole segments in situ | – | 56 µM |
| CN1CC(Oc2cnc(C#N)cc2-c2ccn3nc(NC(=O)C4CC4)cc3c2)C1 | TNF release | human whole blood | added: LPS | 0.87 µM |
| CCOC(=O)C1=C(CSC2=NCCS2)NC(=O)NC1c1cccc(F)c1 (stereo not shown) | nitric oxide scavenging | – | – | 154 µM |
| CC[C@H](C)[C@H](NC(C)=O)C(=O)N[C@H]1CSSC[C@@H](C(=O)N[C@H](C(N)=O)[C@@H](C)O)NC(=O)[C@H](CCCNC(=N)N)NC(=O)[C@H](Cc2c[nH]cn2)NC(=O)[C@@](C)(CC)NC(=O)CNC(=O)[C@H](Cc2c[nH]c3ccccc23)NC(=O)[C@H](CC(=O)O)NC(=O)[C@H](CCC(N)=O)NC(=O)[C@H](Cc2c[nH]c3ccccc23)NC(=O)[C@H](C(C)C)NC1=O | complement activation, inhibitor, ELISA, refers to: C3b | normal human serum | – | 0.77 ± 0.14 µM |
| O=C(Nc1ccccc1)N1CCN(c2nc(-c3ccccc3)ns2)CC1 | CoA-CPM signal reduction, CPM fluorescence thiol | cell-free biochemical | assay interference counter-screen, added: CoA replacing acetyl-CoA | > 125 µM |
| O=C(Cc1ccc(Cl)cc1Cl)NNC(=S)N=Cc1ccccc1Cl | iron chelation | cell-free | EDTA as standard | 33 ± 1.67 µM |
| O=C(O)c1cccnc1Nc1cccc(C(F)(F)F)c1 | input conductance | vascular smooth muscle cells, guinea pig, SMA arteriole segments in situ | – | 40 µM |
| O=c1cc(-c2ccc(O)c(O)c2)oc2cc(O)c([C@@H]3O[C@H](CO)[C@@H](O)[C@H](O)[C@H]3O)c(O)c12 | DPPH radical scavenging | – | 30 min, 37 °C | 44.5 ± 1.25 µg/mL |
| O=S1(=O)C=C(N2CCC3(CC2)OCCO3)c2ccccc21 | CoA-CPM signal reduction, CPM fluorescence thiol | cell-free biochemical | assay interference counter-screen, added: CoA replacing acetyl-CoA | > 125 µM |
| CC[C@H](C)[C@H](NC(=O)[C@H](CCCNC(=N)N)NC(=O)[C@H](CCC(=O)O)NC(C)=O)C(=O)N[C@H]1CSSC[C@@H](C(=O)N[C@H](C(N)=O)[C@@H](C)O)NC(=O)[C@H](CCCNC(=N)N)NC(=O)[C@H](Cc2c[nH]cn2)NC(=O)[C@H](Cc2cccc3ccccc23)NC(=O)CNC(=O)[C@H](Cc2c[nH]c3ccccc23)NC(=O)[C@H](CC(=O)O)NC(=O)[C@H](CCC(N)=O)NC(=O)[C@H](Cc2cccc3ccccc23)NC(=O)[C@H](C(C)C)NC1=O | complement activation, inhibitor, ELISA, refers to: C3b | normal human serum | – | 3.85 ± 0.17 µM |
| O=S1(=O)CC(S(=O)(=O)Nc2ccccc2-c2cccs2)c2ccccc21 (stereo not shown) | CoA-CPM signal reduction, CPM fluorescence thiol | cell-free biochemical | assay interference counter-screen, added: CoA replacing acetyl-CoA | > 125 µM |
| CC[C@H](C)[C@H](NC(=O)[C@H](CO)NC(=O)[C@H](CCCNC(=N)N)NC(C)=O)C(=O)N[C@H]1CSSC[C@@H](C(=O)N[C@H](C(N)=O)[C@@H](C)O)NC(=O)[C@H](CCCNC(=N)N)NC(=O)[C@H](Cc2c[nH]cn2)NC(=O)[C@H](Cc2cccc3ccccc23)NC(=O)CNC(=O)[C@H](Cc2c[nH]c3ccccc23)NC(=O)[C@H](CC(=O)O)NC(=O)[C@H](CCC(N)=O)NC(=O)[C@H](Cc2cccc3ccccc23)NC(=O)[C@H](C(C)C)NC1=O | complement activation, inhibitor, ELISA, refers to: C3b | normal human serum | – | 4.06 ± 0.22 µM |
| O=S1(=O)CC(Sc2ccccc2)c2ccccc21 (stereo not shown) | CoA-CPM signal reduction, CPM fluorescence thiol | cell-free biochemical | assay interference counter-screen, added: CoA replacing acetyl-CoA | > 125 µM |
| Nc1ccc(/C=N/N=C/c2ccc(N)cc2)cc1 | ferric reducing antioxidant power, FRAP | – | – | > 3000 µM |
| CC[C@H](C)[C@H](NC(=O)[C@H](CO)NC(=O)[C@H](CCCNC(=N)N)NC(C)=O)C(=O)N[C@H]1CSSC[C@@H](C(=O)N[C@H](C(N)=O)[C@@H](C)O)NC(=O)[C@H](CCCNC(=N)N)NC(=O)[C@H](Cc2c[nH]cn2)NC(=O)[C@H](C)NC(=O)CNC(=O)[C@H](Cc2c[nH]c3ccccc23)NC(=O)[C@H](CC(=O)O)NC(=O)[C@H](CCC(N)=O)NC(=O)[C@H](Cc2c[nH]c3ccccc23)NC(=O)[C@H](C(C)C)NC1=O | complement activation, inhibitor, ELISA, refers to: C3b | normal human serum | – | 0.58 ± 0.1 µM |
| Cc1cc(C)nc(Sc2ccc3nsnc3c2[N+](=O)[O-])n1 | CoA-CPM signal reduction, CPM fluorescence thiol | cell-free biochemical | assay interference counter-screen, added: CoA replacing acetyl-CoA | > 125 µM |

Repeated from above:
| SMILES | assay | test system | conditions | IC50 |
| --- | --- | --- | --- | --- |
| O=S1(=O)CC(Sc2ccccc2)c2ccccc21 (stereo not shown) | CoA-CPM signal reduction, CPM fluorescence thiol | cell-free biochemical | assay interference counter-screen, added: CoA replacing acetyl-CoA | > 125 µM |
| CN1CC(Oc2cnc(C#N)cc2-c2ccn3nc(NC(=O)C4CC4)cc3c2)C1 | TNF release | human whole blood | added: LPS | 0.87 µM |
| FC(F)(F)c1ccccc1/C=N/N=C/c1ccccc1C(F)(F)F | ferric reducing antioxidant power, FRAP | – | – | 1070 µM |
